Published values of several laboratories.
Each numbered part is a random draw from the data of one study; scales do not carry over between parts. Positions count from the first letter of the parent shown.
Chain of UniProt O14920 (whole entry, looked up): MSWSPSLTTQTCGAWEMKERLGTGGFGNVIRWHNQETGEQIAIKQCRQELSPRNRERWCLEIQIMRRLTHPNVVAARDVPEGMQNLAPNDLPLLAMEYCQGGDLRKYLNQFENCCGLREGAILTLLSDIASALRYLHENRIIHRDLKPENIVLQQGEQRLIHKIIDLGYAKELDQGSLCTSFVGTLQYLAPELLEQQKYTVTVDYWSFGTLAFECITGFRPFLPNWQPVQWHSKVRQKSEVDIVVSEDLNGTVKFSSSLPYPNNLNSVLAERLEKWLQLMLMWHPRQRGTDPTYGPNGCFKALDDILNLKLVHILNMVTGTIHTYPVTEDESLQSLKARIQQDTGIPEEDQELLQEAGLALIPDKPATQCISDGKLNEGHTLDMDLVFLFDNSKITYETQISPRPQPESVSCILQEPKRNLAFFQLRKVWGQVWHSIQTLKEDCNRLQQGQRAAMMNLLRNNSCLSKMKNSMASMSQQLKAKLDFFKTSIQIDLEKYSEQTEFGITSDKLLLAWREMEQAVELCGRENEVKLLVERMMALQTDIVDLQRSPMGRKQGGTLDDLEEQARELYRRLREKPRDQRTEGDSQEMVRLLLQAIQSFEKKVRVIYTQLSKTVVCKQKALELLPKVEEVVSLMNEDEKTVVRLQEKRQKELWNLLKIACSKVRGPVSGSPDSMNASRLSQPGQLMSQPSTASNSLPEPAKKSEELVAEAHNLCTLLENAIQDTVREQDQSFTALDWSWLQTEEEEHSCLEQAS
Chain of UniProt P07948 (whole entry, looked up): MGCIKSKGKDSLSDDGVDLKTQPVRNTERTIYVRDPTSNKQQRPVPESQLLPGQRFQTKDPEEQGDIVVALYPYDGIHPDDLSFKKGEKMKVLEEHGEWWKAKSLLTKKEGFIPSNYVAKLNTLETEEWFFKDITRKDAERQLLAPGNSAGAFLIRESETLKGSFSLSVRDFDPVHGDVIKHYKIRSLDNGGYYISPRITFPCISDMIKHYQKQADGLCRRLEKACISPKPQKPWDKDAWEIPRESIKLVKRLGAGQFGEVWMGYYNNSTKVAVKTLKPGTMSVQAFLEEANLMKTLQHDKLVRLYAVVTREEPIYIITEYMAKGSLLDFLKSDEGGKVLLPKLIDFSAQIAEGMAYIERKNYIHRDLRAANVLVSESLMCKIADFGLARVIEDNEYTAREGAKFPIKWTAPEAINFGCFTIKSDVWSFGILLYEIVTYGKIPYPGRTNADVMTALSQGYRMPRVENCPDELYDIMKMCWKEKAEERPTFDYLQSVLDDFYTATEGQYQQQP
Chain of UniProt Q13557 (whole entry, looked up): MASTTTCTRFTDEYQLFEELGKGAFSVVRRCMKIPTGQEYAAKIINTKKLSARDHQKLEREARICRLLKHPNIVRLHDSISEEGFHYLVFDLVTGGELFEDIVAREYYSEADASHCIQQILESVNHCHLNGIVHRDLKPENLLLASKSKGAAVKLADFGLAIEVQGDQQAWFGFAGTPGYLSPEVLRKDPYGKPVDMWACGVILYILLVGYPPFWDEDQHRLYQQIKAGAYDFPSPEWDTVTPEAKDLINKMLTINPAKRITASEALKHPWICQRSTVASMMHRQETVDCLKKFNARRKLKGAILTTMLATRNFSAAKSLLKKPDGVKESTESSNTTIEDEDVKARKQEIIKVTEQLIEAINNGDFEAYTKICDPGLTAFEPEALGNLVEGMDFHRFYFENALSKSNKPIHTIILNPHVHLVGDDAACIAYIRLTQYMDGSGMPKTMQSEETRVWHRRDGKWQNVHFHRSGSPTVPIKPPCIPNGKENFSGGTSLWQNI
Chain of UniProt P36897 (whole entry, looked up): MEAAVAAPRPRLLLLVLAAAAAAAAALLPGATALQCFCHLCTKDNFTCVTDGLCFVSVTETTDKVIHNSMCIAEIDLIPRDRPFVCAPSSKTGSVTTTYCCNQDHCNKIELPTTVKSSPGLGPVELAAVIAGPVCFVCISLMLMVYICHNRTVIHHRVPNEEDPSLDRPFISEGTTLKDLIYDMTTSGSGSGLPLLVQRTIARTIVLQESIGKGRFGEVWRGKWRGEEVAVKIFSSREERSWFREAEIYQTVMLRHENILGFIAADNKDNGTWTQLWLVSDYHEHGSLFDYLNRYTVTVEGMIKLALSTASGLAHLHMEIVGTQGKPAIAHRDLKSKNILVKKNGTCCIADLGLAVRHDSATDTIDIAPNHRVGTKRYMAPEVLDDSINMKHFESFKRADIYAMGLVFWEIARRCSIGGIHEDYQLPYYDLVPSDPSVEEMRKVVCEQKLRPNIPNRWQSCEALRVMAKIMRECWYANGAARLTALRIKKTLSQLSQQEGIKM
Chain of UniProt P51955 (whole entry, looked up): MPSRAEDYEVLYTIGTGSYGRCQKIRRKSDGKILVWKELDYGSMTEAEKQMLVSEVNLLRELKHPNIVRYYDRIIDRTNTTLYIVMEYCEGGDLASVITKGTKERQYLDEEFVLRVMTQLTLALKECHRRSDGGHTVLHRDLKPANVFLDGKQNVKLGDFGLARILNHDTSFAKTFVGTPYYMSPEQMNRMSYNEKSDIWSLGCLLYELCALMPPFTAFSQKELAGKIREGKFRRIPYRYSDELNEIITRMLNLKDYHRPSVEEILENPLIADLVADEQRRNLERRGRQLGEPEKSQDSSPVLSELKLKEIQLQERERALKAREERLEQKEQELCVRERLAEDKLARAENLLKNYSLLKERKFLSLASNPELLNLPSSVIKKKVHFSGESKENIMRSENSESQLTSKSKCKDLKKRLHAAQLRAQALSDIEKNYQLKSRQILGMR
Chain of UniProt P53355 (whole entry, looked up): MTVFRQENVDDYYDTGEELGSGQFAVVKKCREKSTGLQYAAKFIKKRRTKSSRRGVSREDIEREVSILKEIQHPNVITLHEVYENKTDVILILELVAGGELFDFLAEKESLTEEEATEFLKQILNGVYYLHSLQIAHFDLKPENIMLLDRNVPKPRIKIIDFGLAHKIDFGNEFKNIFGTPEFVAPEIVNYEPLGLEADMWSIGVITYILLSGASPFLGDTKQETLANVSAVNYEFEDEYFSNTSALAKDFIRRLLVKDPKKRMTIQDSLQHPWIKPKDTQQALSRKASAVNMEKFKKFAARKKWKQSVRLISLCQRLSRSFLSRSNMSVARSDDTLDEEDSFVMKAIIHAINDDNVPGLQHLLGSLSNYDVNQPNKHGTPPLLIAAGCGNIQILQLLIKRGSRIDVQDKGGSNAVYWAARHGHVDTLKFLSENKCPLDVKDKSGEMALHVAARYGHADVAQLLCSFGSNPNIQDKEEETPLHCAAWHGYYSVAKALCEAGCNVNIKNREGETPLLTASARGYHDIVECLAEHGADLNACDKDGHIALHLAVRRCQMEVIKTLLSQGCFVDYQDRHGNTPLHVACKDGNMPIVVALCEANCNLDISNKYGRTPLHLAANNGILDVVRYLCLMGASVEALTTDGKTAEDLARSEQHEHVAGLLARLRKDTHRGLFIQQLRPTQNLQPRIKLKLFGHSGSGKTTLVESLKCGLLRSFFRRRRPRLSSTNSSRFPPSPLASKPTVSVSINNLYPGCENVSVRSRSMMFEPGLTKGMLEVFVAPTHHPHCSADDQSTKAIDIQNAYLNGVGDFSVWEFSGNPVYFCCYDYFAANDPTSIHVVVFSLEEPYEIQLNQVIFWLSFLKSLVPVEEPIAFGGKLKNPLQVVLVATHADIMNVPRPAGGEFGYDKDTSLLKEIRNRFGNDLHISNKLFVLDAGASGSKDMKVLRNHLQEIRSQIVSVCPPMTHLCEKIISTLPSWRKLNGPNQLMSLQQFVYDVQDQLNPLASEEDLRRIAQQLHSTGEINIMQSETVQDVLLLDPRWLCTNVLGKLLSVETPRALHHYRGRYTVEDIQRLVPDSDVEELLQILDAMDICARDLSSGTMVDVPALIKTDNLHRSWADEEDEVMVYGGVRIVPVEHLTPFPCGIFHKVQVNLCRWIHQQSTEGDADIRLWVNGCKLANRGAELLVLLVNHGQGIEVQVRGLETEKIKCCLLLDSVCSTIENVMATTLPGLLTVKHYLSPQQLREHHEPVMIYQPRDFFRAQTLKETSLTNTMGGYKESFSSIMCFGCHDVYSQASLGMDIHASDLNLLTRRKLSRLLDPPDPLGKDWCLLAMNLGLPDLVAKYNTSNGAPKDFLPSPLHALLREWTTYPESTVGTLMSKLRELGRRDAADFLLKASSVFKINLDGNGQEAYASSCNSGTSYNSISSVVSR

Block 1
SMILES: O=C(NC(NC(=S)Nc1ccc(F)c([N+](=O)[O-])c1)C(Cl)(Cl)Cl)C(c1ccccc1)c1ccccc1 (stereo not drawn)
Read-out: enzyme activity
Mode: inhibitor
Tested at: 0.5 µM
Reference: control
Measurement: remaining activity
Death-associated protein kinase 1 (DAPK1, Homo sapiens, UniProt P53355): 75.1%
Inhibitor of nuclear factor kappa-B kinase subunit epsilon (IKBKE, Homo sapiens, UniProt Q14164): 106%
Tyrosine-protein kinase Lyn, isoform B (LYN, Homo sapiens, UniProt P07948): 116%
Protein kinase C alpha type (PRKCA, Homo sapiens, UniProt P17252): 73.1%
Serine/threonine-protein kinase Nek2 (NEK2, Homo sapiens, UniProt P51955): 112%
TGF-beta receptor type-1 (TGFBR1, Homo sapiens, UniProt P36897): 92.6%
Calcium/calmodulin-dependent protein kinase type II subunit delta (CAMK2D, Homo sapiens, UniProt Q13557): 102%
STE20/SPS1-related proline-alanine-rich protein kinase (STK39, Homo sapiens, UniProt Q9UEW8): 77%
Inhibitor of nuclear factor kappa-B kinase subunit beta (IKBKB, Homo sapiens, UniProt O14920): 102%
Mitogen-activated protein kinase kinase kinase 3 (MAP3K3, Homo sapiens, UniProt Q99759): 118%

Block 2
Target: Interferon regulatory factor 7, full length, phosphomimetic (IRF7, Homo sapiens, UniProt Q92985, residues 1-503, S101K/S471D/S472D/S475D/S476D/S477D/S483D/S484D/S487D)
Method: protein-binding microarray
Molecule type: double-stranded DNA, one strand shown
Sample: in vitro
Tested at: 250 nM
Notes: 60-bp whole probe
Added: salmon DNA 0.4 mg/ml
Reference: random background probes
Reading: higher = stronger binding
Measurement: log fluorescence
Constant ends, left off below: GCCTAGCAC … GTGCTAGGTCTTGATTCGCTTGACGCTGCTG
Target sequence (chain): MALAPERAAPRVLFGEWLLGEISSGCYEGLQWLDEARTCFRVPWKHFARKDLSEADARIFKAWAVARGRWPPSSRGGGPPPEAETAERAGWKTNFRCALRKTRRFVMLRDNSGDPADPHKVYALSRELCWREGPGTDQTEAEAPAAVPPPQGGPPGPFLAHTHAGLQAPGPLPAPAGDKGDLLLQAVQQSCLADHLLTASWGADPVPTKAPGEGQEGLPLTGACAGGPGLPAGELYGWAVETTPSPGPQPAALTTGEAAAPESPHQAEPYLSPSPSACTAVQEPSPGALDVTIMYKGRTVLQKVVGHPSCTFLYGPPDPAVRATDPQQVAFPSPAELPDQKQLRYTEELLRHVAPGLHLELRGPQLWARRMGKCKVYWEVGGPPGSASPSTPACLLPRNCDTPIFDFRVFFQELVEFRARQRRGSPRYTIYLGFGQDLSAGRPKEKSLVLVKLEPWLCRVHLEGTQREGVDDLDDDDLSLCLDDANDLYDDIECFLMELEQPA
TTAGGTTTCGGACAGGGTTA: 2.07 z-score
GACATCCCCAGTCTCATATT: 0.877 z-score
GACGATTCCAGTTTCGATAC: 7.11 z-score
TTAGGTTTCGGTAGCGGTTA: 3.46 z-score
TCACATTCACCTGTCGTACT: 0.336 z-score
TCAATTTTTGCTTACGAACT: 0.118 z-score
TTAGGTTTCGGAATCGGTTA: 10.6 z-score
GACGATCTCAGTCTCGAGCC: -0.0805 z-score

Block 3
Target: XBP1, bZIP domain (human)
Method: DHFR protein complementation
Sample: yeast
Notes: single substitutions, most at no-binding floor
Reference: wild-type JUN-FOS pair
Reading: higher = stronger binding
Measurement: binding fitness
Starting sequence: JUN, bZIP domain (human); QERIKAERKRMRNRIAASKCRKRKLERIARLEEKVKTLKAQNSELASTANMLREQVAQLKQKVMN; partner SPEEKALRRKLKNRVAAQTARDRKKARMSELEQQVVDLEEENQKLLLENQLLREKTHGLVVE
K36W: -1.46 natural log
A40H: -0.955 natural log
N42I: -1.4 natural log
E54R: -1.29 natural log
L38T: -1.36 natural log
E54K: -1.42 natural log
V56L: -0.269 natural log
S43K: -0.719 natural log

Single results of other studies
NC1(c2ccc(-c3nc4c(O)ccnn4c3-c3ccccc3)cc2)CCC1
EC50 (RAC-gamma serine/threonine-protein kinase (AKT3, Homo sapiens, UniProt Q9Y243); target engagement, NanoBRET; live cells): > 50 µM

A few entries again (block 2):
TCACATTCACCTGTCGTACT: 0.336 z-score
TTAGGTTTCGGAATCGGTTA: 10.6 z-score
